Experimental data from different studies.
Each line is one published result; not all experiments were run side by side. Numbers after ± are the reported error.

Compound | tested on | assay | system | conditions | endpoint | result
O=C(c1ccccc1O)c1[nH]c(Cl)c(Cl)c1-n1c(C(=O)c2ccccc2O)cc(Cl)c1Cl | Escherichia coli | microbial growth | K12, MG1655 | – | MIC | > 64 µM
CC[C@H](C)[C@H](NC(=O)[C@@H](CCCNC(=N)N)NC(=O)[C@H](CCCNC(=N)N)NC(=O)[C@@H]1CCCN1C(=O)[C@@H]1CCCN1C(=O)[C@H](CCCNC(=N)N)NC(=O)[C@@H]1CCCN1C(=O)[C@H](CCCNC(=N)N)NC(=O)[C@@H]1CCCN1C(=O)[C@H](CC(C)C)NC(=O)[C@H](Cc1ccc(O)c([N+](=O)[O-])c1)NC(=O)[C@@H]1CCCN1C(=O)[C@@H]1CCCN1C(=O)[C@H](CCCCN)NC(=O)[C@H](CC(=O)O)NC(=O)[C@@H](N)C(C)C)C(=O)N[C@@H](Cc1ccc(O)cc1)C(=O)N[C@@H](CC(N)=O)C(=O)N[C@H](CCCNC(=N)N)C(N)=O | Escherichia coli | broth microdilution | BW25113 | 18 h, 37 °C, 25% MHB2 | MIC | 8 µg/mL
CC[C@H](C)[C@@H]1NC(=O)CNC(=O)[C@H](CCCNC(=N)N)NC(=O)[C@H](Cc2ccc(O)cc2)NC(=O)[C@@H]2CSSC[C@H](NC1=O)C(=O)N[C@@H](Cc1ccc(O)cc1)C(=O)N[C@@H](CCCNC(=N)N)C(=O)N[C@@H](CCCCN)C(=O)N[C@H](C(=O)N[C@@H](CCCNC(=N)N)C(N)=O)CSSC[C@H](NC(=O)[C@H](Cc1c[nH]c3ccccc13)NC(=O)[C@@H](N)CCCNC(=N)N)C(=O)N[C@@H](Cc1ccccc1)C(=O)N[C@@H](CCCNC(=N)N)C(=O)N[C@@H](C(C)C)C(=O)N2 | Escherichia coli | broth dilution | K12 BW25113, Mueller-Hinton II broth | 18 h, 37 °C | MIC | 3.91 µg/mL
CC(C)C[C@@H](NC(=O)[C@H](NC(=O)[C@@H](CCCCN)NC(=O)[C@@H](CCCCN)NC(=O)[C@@H](CC(C)C)NC(=O)[C@@H](Cc1c[nH]c2ccccc12)NC(=O)[C@@H](CCCCN)NC(=O)[C@@H](Cc1c[nH]c2ccccc12)NC(=O)[C@@H](CC(C)C)NC(=O)[C@@H](CCCCN)NC(=O)[C@@H](CCCCN)NC(=O)[C@H](N)C(C)C)C(C)C)C(N)=O | Escherichia coli | – | – | 24 h, 37 °C, Mueller-Hinton broth, NaCl 150 mM | MIC | 8 µM
O=C1NC2(CC2)COc2ncc(F)cc2[C@H]2COCCN2c2ccn3ncc1c3n2 | – | – | Sprague-Dawley rats, female, blood | oral, 10 mg/kg/day, end of treatment, 4-week subacute toxicity | haematocrit | 41.3 ± 4.5%
CC1(C)[C@H](NC(=O)/C(=N\OCc2c(Cl)cccc2Cl)c2nsc(N)n2)C(=O)N1OS(=O)(=O)O | Escherichia coli | agar dilution | 08-85, mcr-1 | – | MIC | 16 µg/mL
CCn1c(-c2ccc(F)cc2)c(-c2ccc(F)cc2)n(CCOC)c1=[Se] | Escherichia coli | broth microdilution | carbapenem-resistant BAA-2140 | 24 h | MIC | > 40 µM
CCCCCCCC(=O)N[C@@H](CCN)C(=O)N[C@H](C(=O)N[C@@H](CCN)C(=O)N[C@H]1CCNC(=O)[C@H]([C@@H](C)O)NC(=O)[C@H](CCN)NC(=O)[C@H](CCN)NC(=O)[C@H](CCC(C)C)NC(=O)[C@@H](Cc2ccccc2)NC(=O)[C@H](CCN)NC1=O)[C@@H](C)O | Escherichia coli | broth microdilution | ATCC 25922, colistin-susceptible | – | MIC | < 0.125 µg/mL
CC(C)C[C@@H](NC(=O)[C@H](NC(=O)[C@@H](CCCCN)NC(=O)[C@@H](CCCCN)NC(=O)[C@@H](CC(C)C)NC(=O)[C@@H](Cc1c[nH]c2ccccc12)NC(=O)[C@@H](CCCCN)NC(=O)[C@@H](CC(C)C)NC(=O)[C@@H](CC(C)C)NC(=O)[C@@H](CCCCN)NC(=O)[C@@H](CCCCN)NC(=O)[C@H](N)C(C)C)C(C)C)C(N)=O | Escherichia coli | – | – | 24 h, 37 °C, Mueller-Hinton broth, human serum 10% | MIC | 8 µM
CC[C@H](C)[C@H](NC(=O)[C@H](CCCCN)NC(=O)[C@H](CCCCN)NC(=O)[C@H](Cc1ccccc1)NC(=O)[C@H](Cc1ccccc1)NC(=O)[C@H](CCCCN)NC(=O)[C@H](CCCCN)NC(=O)[C@H](Cc1ccccc1)NC(=O)[C@H](CCCNC(=N)N)NC(=O)[C@@H](N)CCCCN)C(=O)N[C@@H](CCCCN)C(=O)N[C@@H](CCCCN)C(=O)N[C@@H](CO)C(=O)N[C@H](C(=O)N[C@@H](CCCCN)C(=O)N[C@@H](CCCCN)C(=O)N[C@@H](CCCNC(=N)N)C(=O)N[C@H](C(=O)N[C@@H](CCCCN)C(=O)N[C@@H](CCCCN)C(=O)N[C@@H](CC(C)C)C(=O)N[C@@H](Cc1ccccc1)C(=O)N[C@@H](CCCCN)C(=O)N[C@@H](CCCCN)C(=O)N1CCC[C@H]1C(=O)N[C@@H](CCCNC(=N)N)C(=O)N[C@H](C(=O)N[C@H](C(=O)N1CCC[C@H]1C(=O)N[C@H](C(=O)N[C@@H](CO)C(=O)N[C@H](C(=O)N1CCC[C@H]1C(=O)N[C@@H](Cc1ccccc1)C(=O)O)[C@@H](C)CC)[C@@H](C)CC)[C@@H](C)CC)C(C)C)C(C)C)C(C)C | Escherichia coli | broth microdilution | E24 clinical isolate | 20 h | MIC | 4 µg/mL
CC[C@H](C)[C@H](NC(=O)CNC(=O)[C@H](CC(=O)O)NC(=O)[C@H](CCCNC(=N)N)NC(=O)[C@@H](NC(=O)[C@H](CC(N)=O)NC(=O)[C@H](CCCNC(=N)N)NC(=O)CNC(=O)[C@@H](NC(=O)[C@H](CCCCN)NC(=O)[C@H](CCC(=O)O)NC(=O)[C@H](CC(C)C)NC(=O)[C@H](CCCCN)NC(=O)[C@H](CCCCN)NC(=O)[C@H](Cc1c[nH]c2ccccc12)NC(=O)[C@H](CO)NC(=O)[C@@H]1CCCN1)C(C)C)[C@@H](C)CC)C(=O)N[C@H](C(=O)N[C@@H](CCCCN)C(=O)N[C@@H](C)C(=O)NCC(=O)N1CCC[C@H]1C(=O)N[C@H](C(=O)N[C@H](C(=O)N[C@@H](CCC(=O)O)C(=O)N[C@H](C(=O)N[C@@H](CC(C)C)C(=O)NCC(=O)O)C(C)C)C(C)C)C(C)C)[C@@H](C)CC | Escherichia coli | broth microdilution | K88, Mueller-Hinton broth | 37 °C | MIC | 35.2 µg/mL
CC[C@H](C)[C@H](NC(=O)[C@@H](CCCNC(=N)N)NC(=O)[C@H](CCCNC(=N)N)NC(=O)[C@@H](NC(=O)[C@H](Cc1c[nH]c2ccccc12)NC(=O)[C@H](CCCNC(=N)N)NC(=O)[C@@H]1CCCN1C(=O)[C@H](CCCNC(=N)N)NC(=O)[C@@H]1CCCN1C(=O)[C@H](CC(C)C)NC(=O)[C@H](Cc1ccc(O)cc1)NC(=O)[C@@H]1CCCN1C(=O)[C@@H]1CCCN1C(=O)[C@H](CCCCN)NC(=O)[C@H](CC(=O)O)NC(=O)[C@@H](N)C(C)C)[C@@H](C)O)C(=O)N[C@@H](Cc1ccc(O)cc1)C(=O)N[C@@H](CC(N)=O)C(=O)N[C@H](CCCNC(=N)N)C(N)=O | Escherichia coli | broth microdilution | ATCC 25922 | 18 h, 37 °C, 25% MHB2 | MIC | 8 µg/mL
CO[C@@H](C(N)=O)[C@H](NC(=O)c1ccc(NC(=O)[C@@H](N)Cc2ccc(O)cc2)cc1)C(=O)Nc1ccc(C(=O)Nc2ccc(C(=O)Nc3ccc(C(=O)O)cc3)c(O)c2OC(C)C)cc1 | Escherichia coli | – | MerR family clone | 16 h, 37 °C | MIC | > 8 µg/mL
CC[C@H](C)[C@H](NC(=O)[C@H](CCCNC(=N)N)NC(=O)[C@H](CO)NC(=O)[C@H](Cc1ccc(O)cc1)NC(=O)[C@@H](NC(=O)[C@@H](NC(=O)[C@H](C)NC(=O)CNC(=O)[C@H](CCCCN)NC(=O)[C@H](CCCCN)NC(=O)CCNC(=O)CCCCCNC(=O)[C@H](CCCNC(=N)N)NC(=O)CCCCCNC(=O)[C@H](CCCNC(=N)N)NC(=O)[C@H](CCCNC(=N)N)NC(=O)CCCCCNC(=O)[C@H](CCCNC(=N)N)NC(=O)[C@H](CCCNC(=N)N)NC(=O)CCCCCNC(=O)[C@H](CCCNC(=N)N)NC(=O)[C@H](CCCNC(=N)N)NC(=O)CCCCCNC(=O)[C@@H](N)CCCNC(=N)N)C(C)C)[C@@H](C)O)C(=O)N[C@@H](CO)C(=O)NCC(=O)N[C@@H](CCC(N)=O)C(=O)N[C@@H](Cc1ccc(O)cc1)C(=O)N[C@@H](CCCCN)C(=O)O | Escherichia coli | – | ATCC 25922, Mueller-Hinton broth | no added salt | MIC | 6 µM
CC[C@H](C)[C@H](NC(=O)[C@@H](CCCNC(=N)N)NC(=O)[C@H](CCCNC(=N)N)NC(=O)[C@H](Cc1ccc(O)cc1)NC(=O)[C@H](Cc1c[nH]c2ccccc12)NC(=O)[C@H](CCCNC(=N)N)NC(=O)[C@@H]1CCCN1C(=O)[C@H](CCCNC(=N)N)NC(=O)[C@@H]1CCCN1C(=O)[C@H](CC(C)C)NC(=O)[C@H](Cc1ccc(O)cc1)NC(=O)[C@@H]1CCCN1C(=O)[C@@H]1CCCN1C(=O)[C@H](CCCCN)NC(=O)[C@H](CC(=O)O)NC(=O)[C@@H](N)C(C)C)C(=O)N[C@@H](Cc1ccc(O)cc1)C(=O)N[C@@H](CC(N)=O)C(=O)N[C@H](CCCNC(=N)N)C(N)=O | Escherichia coli | broth microdilution | BW25113 | 18 h, 37 °C, 25% MHB2 | MIC | 16 µg/mL
N=C(N)NCCC[C@@H]1NC(=O)[C@H](CCCNC(=N)N)NC(=O)[C@H](CCCNC(=N)N)NC(=O)[C@@H](CCCNC(=N)N)NC(=O)[C@H](Cc2ccc3ccccc3c2)NC(=O)[C@H](Cc2ccc3ccccc3c2)NC(=O)[C@H](Cc2ccc3ccccc3c2)NC1=O | Escherichia coli | – | ATCC BAA-2452, NDM-1 CRE | – | MIC | 16 µg/mL
CC(C)Oc1ccc(B(O)O)c(F)n1 | Escherichia coli | bacterial growth | TEM-3 ESBL clinical isolate | without cefotaxime | MIC | 1020 µg/mL
CN[C@@H]1[C@H](O)[C@H](NC)[C@H]2O[C@]3(O)[C@H](O[C@@H]2[C@H]1O)O[C@H](C)C[C@H]3NC(=O)Cc1cc(Cl)ccn1 | Escherichia coli | microbial growth, broth dilution | K12 | – | MIC | > 200 µg/mL
CC[C@H](C)[C@H](NC(=O)[C@@H](CCCNC(=N)N)NC(=O)[C@H](CCCNC(=N)N)NC(=O)[C@H](CCC(N)=O)NC(=O)[C@H](Cc1c[nH]c2ccccc12)NC(=O)[C@H](CCCNC(=N)N)NC(=O)[C@@H]1CCCN1C(=O)[C@H](CCCNC(=N)N)NC(=O)[C@@H]1CCCN1C(=O)[C@H](CC(C)C)NC(=O)[C@H](Cc1ccc(O)cc1)NC(=O)[C@@H]1CCCN1C(=O)[C@@H]1CCCN1C(=O)[C@H](CCCCN)NC(=O)[C@H](CC(=O)O)NC(=O)[C@@H](N)C(C)C)C(=O)N[C@@H](Cc1ccc(O)cc1)C(=O)N[C@@H](CC(N)=O)C(=O)N[C@H](CCCNC(=N)N)C(N)=O | Escherichia coli | broth microdilution | MC4100 | 18 h, 37 °C, 25% MHB2 | MIC | 8 µg/mL
CC[C@H](C)[C@H](NC(=O)[C@@H](CCC(=O)O)NC(=O)[C@H](CC(C)C)NC(=O)c1cccc(-c2ccccn2)n1)C(=O)N[C@H]1CCCCNC(=O)[C@H](CC(N)=O)NC(=O)[C@@H](CC(=O)O)NC(=O)[C@H](Cc2c[nH]cn2)NC(=O)[C@@H](Cc2ccccc2)NC(=O)[C@H]([C@@H](C)CC)NC(=O)[C@@H](CCCN)NC1=O | Escherichia coli | – | ATCC 25922 | 18 h, 37 °C, 0.3 mM ZnSO4 LB | MIC | > 64 µg/mL
